Published values gathered from unrelated publications.
Numbered parts are unrelated; each lists some results of a single study.

Block 1
Target: Interferon regulatory factor 7, full length, phosphomimetic (IRF7, Homo sapiens, UniProt Q92985, residues 1-503, S471D/S472D/S475D/S476D/S477D/S483D/S484D/S487D)
Chain of UniProt Q92985 (whole entry, unmodified, looked up): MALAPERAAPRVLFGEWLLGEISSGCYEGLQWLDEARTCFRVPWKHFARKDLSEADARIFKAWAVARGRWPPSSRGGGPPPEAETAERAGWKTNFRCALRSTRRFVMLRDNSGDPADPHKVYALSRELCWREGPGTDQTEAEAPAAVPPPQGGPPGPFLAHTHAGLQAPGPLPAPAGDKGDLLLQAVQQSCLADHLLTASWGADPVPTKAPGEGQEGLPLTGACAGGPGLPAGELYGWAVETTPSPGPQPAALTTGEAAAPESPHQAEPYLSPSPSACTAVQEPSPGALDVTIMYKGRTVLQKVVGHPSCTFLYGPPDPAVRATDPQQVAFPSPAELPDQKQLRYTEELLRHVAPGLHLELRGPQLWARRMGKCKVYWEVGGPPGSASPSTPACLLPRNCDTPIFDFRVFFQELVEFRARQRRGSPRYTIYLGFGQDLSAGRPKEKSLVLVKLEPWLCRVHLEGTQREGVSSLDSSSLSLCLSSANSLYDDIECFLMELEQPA
Method: protein-binding microarray
Form: double-stranded DNA, one strand shown
Matrix: in vitro
Tested at: 2200 nM top
Notes: 60-bp whole probe
Together with: salmon DNA 0.4 mg/ml
Relative to: random background probes
Reading: higher = stronger binding
Constant ends, left off below: GCCTAGCAC … GTGCTAGGTCTTGATTCGCTTGACGCTGCTG
| Oligonucleotide | fitted relative affinity |
| --- | --- |
| TTAGCTATCCTTCTCCTTTA | 1.43 z-score |
| TTGCCTCTGCTGCTGGCCGC | -0.0107 z-score |
| GACTTTTTAGATATCTTTTT | 0.726 z-score |
| TCATTTTGCACTCTCTAACT | 2.87 z-score |
| TTAGGTATCCTTATACTTTA | 0.453 z-score |
| TTAGTTCTCGGACTGGGTTA | 0.535 z-score |

Block 2
Target: RNA binding protein fox-1 homolog 2, RRM domain, GST-SBP tag (RBFOX2, Homo sapiens, UniProt O43251-10, residues 100-194)
Method: RNA Bind-n-Seq
Form: RNA
Matrix: in vitro
Tested at: 365 nM
Notes: natural RNA segment, single round, ends assumed
Relative to: no-protein control
Reading: higher = stronger binding
Constant ends, left off below: GGGAGUUCUACAGUCCGACGAUC … UGGAAUUCUCGGGUGCCAA
Residues (chain): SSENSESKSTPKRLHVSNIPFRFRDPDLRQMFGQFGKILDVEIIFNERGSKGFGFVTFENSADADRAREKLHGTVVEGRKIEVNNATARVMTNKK
| Oligonucleotide | RBNS enrichment (R) |
| --- | --- |
| CCUUGAUGAUUUAUCAGGCAUGAGAGUAGCAGACAGGAUUGCCUUGAGAAACACACAGACAACAACGGUGGUGAACACAUUUCCCUUUCUUGAUACCACCCAGAAAGUCU | 0.572 |
| UAACAGACAUUUCAGUUUUACCGUGCUCAUUUCUUUUUGCUGACUUAAGGUCAGAACUUUUACAGACAACAAACAACCCUAGGGUUUCUUUUUCCAGUUUACACAGACCG | 0.678 |
| ACAUUACAAAGGAUUUGUUUGCUUAGCUGUCAACAAAAAGAAAACCUGAGGGAGCAUUCAGCAAGUCAGUUUGAGAUUAUUUUUCCUUUUCUACGUUGGAACGUGCCCCG | 0.374 |
| GCAGACUGGUGAGCAGACUGGUGGGAUCUGUGCCCAGAGAUGGGACUGGGAGGGCCCACUUCAGGGUUCUCCUCUCCCCUCUAAGGCCGAAGAAGGGUCCUUCCCUCUCC | 0.284 |
| GUUGAUACCUGAGCCUGCAAUAGAGCCCUGAAAUCAAGAGCAUGGCUUGAGUGUGUGAAUAUGAUGUGUGCACAUGCUUAAUGAGCGUGCAAGUGUGCACACGUUUGUGG | 6.88 |
| UUAAAAAUGGACUUGCAAACUCAUAGUACCUGGCUGCACACGUCCUCGCCUCUGUUUGUCUGGCUCUAGAUACCUAAUUCUCAAUCUUCCUCCGCUCACCCCAUUGCUUG | 2 |
| UGUCAGAAAUGUACAAUUUUAGGGUAUGUUUAGAUUAAAUAUUUUUUAUUUUUAAGUUACCAGGCACUUUUCAUGCUAUUUAAGACUAUAUAUCAAAUUGUGCACUUUAA | 0.738 |

Block 3
Target: Histone acetyltransferase KAT6A, both winged helices, GST fusion (KAT6A, Homo sapiens, UniProt Q92794, residues 1-181)
Method: protein binding microarray
Form: double-stranded DNA, one strand shown
Matrix: in vitro
Tested at: not given
Notes: 8-mer, flanks averaged, mean of 2 arrays, mostly near background
Relative to: not given
Reading: higher = stronger binding
Residues (chain): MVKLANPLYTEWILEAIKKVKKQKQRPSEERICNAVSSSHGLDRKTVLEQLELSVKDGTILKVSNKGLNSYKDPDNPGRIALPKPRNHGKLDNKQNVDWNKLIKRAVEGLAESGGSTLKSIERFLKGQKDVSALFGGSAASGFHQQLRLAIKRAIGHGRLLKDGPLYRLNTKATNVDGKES
| Oligonucleotide | E-score |
| --- | --- |
| AATAAGCG | 0.0663 |
| TGCCCGCA | 0.102 |
| AGCATCCC | -0.00806 |
| GACGATAA | -0.0507 |
| CGAAAAGA | -0.056 |
| CTCAATCC | -0.0459 |
| AACGAGTA | -0.106 |

Single results of other studies
| Molecule | target | assay | system | conditions | how to read | measurement | value |
| --- | --- | --- | --- | --- | --- | --- | --- |
| PhoQ, residues 284 288 289 292 302 303 GANMMA | PhoP, residues 12 14 15 18 19 LHHVQ (Escherichia coli, UniProt P23836) | Sort-seq, item: YFP reporter | E. coli | PhoQ-PhoP variant library, together with: 10 µM Mg2+ | relative to: high Mg2+ state, higher = stronger signaling | fold induction | 12.9 |

Repeated from above (single results of other studies):
| Molecule | target | assay | system | conditions | how to read | measurement | value |
| --- | --- | --- | --- | --- | --- | --- | --- |
| PhoQ, residues 284 288 289 292 302 303 GANMMA | PhoP, residues 12 14 15 18 19 LHHVQ (Escherichia coli, UniProt P23836) | Sort-seq, item: YFP reporter | E. coli | PhoQ-PhoP variant library, together with: 10 µM Mg2+ | relative to: high Mg2+ state, higher = stronger signaling | fold induction | 12.9 |
